Results gathered from unrelated publications.
Parts stem from different laboratories: compare values within a part only. “And” joins repeats or separate records; there may be more than shown.
Chain of UniProt Q86Z02 (whole entry, looked up): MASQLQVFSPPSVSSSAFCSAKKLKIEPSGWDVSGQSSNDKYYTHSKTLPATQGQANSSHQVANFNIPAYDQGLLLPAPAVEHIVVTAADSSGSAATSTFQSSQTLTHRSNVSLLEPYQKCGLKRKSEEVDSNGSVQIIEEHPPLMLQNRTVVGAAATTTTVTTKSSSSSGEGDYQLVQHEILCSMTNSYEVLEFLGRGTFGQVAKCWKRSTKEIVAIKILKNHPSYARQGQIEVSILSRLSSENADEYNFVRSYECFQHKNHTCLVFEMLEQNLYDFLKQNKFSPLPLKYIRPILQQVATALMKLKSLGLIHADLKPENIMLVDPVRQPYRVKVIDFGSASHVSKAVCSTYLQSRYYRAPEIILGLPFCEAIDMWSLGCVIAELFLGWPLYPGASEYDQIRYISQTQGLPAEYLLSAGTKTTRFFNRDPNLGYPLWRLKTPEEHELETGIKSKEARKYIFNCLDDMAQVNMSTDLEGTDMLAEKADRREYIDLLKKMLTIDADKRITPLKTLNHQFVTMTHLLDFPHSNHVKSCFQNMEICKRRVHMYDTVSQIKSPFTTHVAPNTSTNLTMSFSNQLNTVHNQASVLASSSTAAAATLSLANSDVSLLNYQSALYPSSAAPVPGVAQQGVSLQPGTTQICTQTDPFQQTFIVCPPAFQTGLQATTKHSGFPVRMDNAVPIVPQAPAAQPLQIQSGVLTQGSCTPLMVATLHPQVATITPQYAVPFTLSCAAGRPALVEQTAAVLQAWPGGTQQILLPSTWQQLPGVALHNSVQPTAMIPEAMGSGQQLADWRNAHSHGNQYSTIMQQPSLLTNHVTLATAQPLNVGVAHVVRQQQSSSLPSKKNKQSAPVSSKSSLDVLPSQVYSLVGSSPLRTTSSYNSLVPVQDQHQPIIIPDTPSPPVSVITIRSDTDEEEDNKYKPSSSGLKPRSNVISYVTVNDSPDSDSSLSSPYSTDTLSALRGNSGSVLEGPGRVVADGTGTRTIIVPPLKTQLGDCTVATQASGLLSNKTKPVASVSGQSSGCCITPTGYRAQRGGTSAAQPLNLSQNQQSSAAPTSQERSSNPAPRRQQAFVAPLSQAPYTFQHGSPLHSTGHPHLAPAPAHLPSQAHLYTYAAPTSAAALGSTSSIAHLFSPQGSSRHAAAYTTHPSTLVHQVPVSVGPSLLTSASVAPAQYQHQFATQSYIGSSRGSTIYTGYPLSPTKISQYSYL

Study 1
SMILES: COc1ccc2[nH]c3c4[nH]c5ccc(OC)cc5c4c4c(c3c2c1)C(=O)NC4=O
Tested at: 1 µM
target	test	conditions	how to read	remaining binding [%]
MAP3K2 (Homo sapiens, UniProt Q9Y2U5)	competitive binding panel		reference: vehicle	85
TRPM6 (Homo sapiens, UniProt Q9BX84)	competitive binding panel		reference: vehicle	79
BMPR1B (Homo sapiens, UniProt O00238)	competitive binding panel		reference: vehicle	56
CAMK1 (Homo sapiens, UniProt Q14012)	competitive binding panel		reference: vehicle	80
PI4KB (Homo sapiens, UniProt Q9UBF8)	competitive binding panel, refers to: PIK4CB		reference: vehicle	100
GSK3B (Homo sapiens, UniProt P49841)	competitive binding panel		reference: vehicle	68
RIOK2 (Homo sapiens, UniProt Q9BVS4)	competitive binding panel		reference: vehicle	89
STK24 (Homo sapiens, UniProt Q9Y6E0)	competitive binding panel, refers to: MST3		reference: vehicle	76
SGK3 (Homo sapiens, UniProt Q96BR1)	competitive binding panel		reference: vehicle	8.1
MAP3K10 (Homo sapiens, UniProt Q02779)	competitive binding panel, refers to: MLK2		reference: vehicle	83
BMP2K (Homo sapiens, UniProt Q9NSY1)	competitive binding	BIKE		76
GRK1 (Homo sapiens, UniProt Q15835)	competitive binding panel		reference: vehicle	95
GRK4 (Homo sapiens, UniProt P32298)	competitive binding panel		reference: vehicle	100
HIPK1 (Homo sapiens, UniProt Q86Z02)	competitive binding panel		reference: vehicle	56

Study 2
Target: Insulin receptor (INSR, Homo sapiens, UniProt P06213)
Chain of UniProt P06213 (whole entry, looked up): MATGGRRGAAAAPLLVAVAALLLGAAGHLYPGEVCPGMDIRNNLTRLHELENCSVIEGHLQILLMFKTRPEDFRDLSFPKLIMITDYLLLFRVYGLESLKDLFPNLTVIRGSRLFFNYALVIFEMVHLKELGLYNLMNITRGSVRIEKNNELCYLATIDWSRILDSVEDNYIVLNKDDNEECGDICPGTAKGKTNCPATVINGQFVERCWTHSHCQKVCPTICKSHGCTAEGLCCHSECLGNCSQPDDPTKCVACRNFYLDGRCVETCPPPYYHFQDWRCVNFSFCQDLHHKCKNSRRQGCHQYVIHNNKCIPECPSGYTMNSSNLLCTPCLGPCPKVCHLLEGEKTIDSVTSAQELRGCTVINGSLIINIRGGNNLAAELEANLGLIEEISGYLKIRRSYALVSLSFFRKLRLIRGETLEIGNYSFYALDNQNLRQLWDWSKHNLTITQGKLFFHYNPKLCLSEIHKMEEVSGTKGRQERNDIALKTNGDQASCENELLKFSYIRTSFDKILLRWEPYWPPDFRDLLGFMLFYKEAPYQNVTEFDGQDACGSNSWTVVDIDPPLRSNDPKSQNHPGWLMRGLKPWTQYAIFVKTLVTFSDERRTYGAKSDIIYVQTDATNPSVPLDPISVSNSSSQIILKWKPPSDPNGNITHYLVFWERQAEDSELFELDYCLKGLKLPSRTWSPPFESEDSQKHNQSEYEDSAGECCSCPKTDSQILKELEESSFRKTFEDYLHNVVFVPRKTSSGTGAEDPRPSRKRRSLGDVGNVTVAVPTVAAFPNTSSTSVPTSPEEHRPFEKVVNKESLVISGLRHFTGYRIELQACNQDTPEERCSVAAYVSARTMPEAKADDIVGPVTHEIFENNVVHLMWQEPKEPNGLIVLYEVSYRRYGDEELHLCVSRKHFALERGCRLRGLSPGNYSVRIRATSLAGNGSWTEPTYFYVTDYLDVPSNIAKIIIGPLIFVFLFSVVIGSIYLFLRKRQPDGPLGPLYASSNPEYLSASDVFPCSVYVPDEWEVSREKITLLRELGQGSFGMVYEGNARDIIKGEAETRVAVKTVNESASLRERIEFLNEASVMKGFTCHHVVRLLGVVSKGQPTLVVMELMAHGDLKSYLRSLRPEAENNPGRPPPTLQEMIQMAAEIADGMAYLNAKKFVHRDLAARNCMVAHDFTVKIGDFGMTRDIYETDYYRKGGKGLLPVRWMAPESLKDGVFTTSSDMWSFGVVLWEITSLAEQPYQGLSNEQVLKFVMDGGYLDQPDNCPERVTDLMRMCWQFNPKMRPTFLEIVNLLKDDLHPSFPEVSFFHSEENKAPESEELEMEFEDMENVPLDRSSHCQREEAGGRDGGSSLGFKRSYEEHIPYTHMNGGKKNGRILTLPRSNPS
Read-out: enzyme activity
Mode: inhibitor
Tested at: 0.5 µM
Reference: control
SMILES	remaining activity
CCN(CC)C(=O)c1ccc(Nc2nc(OCC3CCCCC3)c3[nH]cnc3n2)cc1	92.8%
Cc1nc2cc3nc(-c4cccs4)cnc3cc2n1C	99.9%
O=C1c2ccccc2-c2n[nH]c3cccc1c23	86.9%
O=C(NC(NC(=S)Nc1ccc(F)c([N+](=O)[O-])c1)C(Cl)(Cl)Cl)C(c1ccccc1)c1ccccc1 (centres unmarked)	100%
CCOc1nc(NC(=O)Cc2cc(OC)ccc2OC)cc(N)c1C#N	102%
CN([C@@H](Cc1ccc(OS(=O)(=O)c2cccc3cnccc23)cc1)C(=O)N1CCN(c2ccccc2)CC1)S(=O)(=O)c1cccc2cnccc12	98.8%
c1ccc(-c2cnc(Nc3ccc(OCCN4CCCC4)cc3)s2)cc1	95%
CN(C)C[C@H]1CCn2c(c(C3=C(c4cn(C)c5ccccc45)C(=O)NC3=O)c3ccccc32)C1	88%
COc1cc2ncnc(Nc3ccc(O)c(Br)c3)c2cc1OC	92.4%
N#Cc1c(NC(=O)c2cccc3ccccc23)sc2c1CCCC2	98.2%
O=C(Nc1cccc(Nc2nccc(Nc3cccc(C(F)(F)F)c3)n2)c1)C1CC1	89.8%
Cc1cn(-c2cc(NC(=O)c3ccc(C)c(Nc4nccc(-c5cccnc5)n4)c3)cc(C(F)(F)F)c2)cn1	102%
Cn1nc2c3c(cccc31)C(=O)c1ccccc1-2	99.5%
c1ccc(-c2[nH]ncc2-c2ccnc3ccccc23)nc1	86.7%
COc1cc2ncnc(Nc3cccc(Cl)c3)c2cc1OC	77.6%
Nc1cccc(-c2cc3c(Oc4cccc(O)c4)ncnc3[nH]2)c1	93.7%
Ic1cccc(CSc2nnc(-c3ccncc3)o2)c1	83.5%
O=C1C(Cl)=C(N2C(=O)CCC2=O)C(=O)c2ccccc21	105%
N#C/C(=C\c1ccc(O)c(O)c1)C(=O)NCc1ccccc1	93.8%
CCN(CC)CCNC(=O)c1c(C)[nH]c(/C=C2\C(=O)Nc3ccc(Cl)cc32)c1C	30.1%
O=c1cc(-c2cccc3c2Sc2ccccc2S3)oc(N2CCOCC2)c1	105%
COc1cc2c(cc1OC)-c1[nH]nc(Nc3cccc(F)c3)c1C2	101%
Cc1cc2ncc(-c3ccccc3)nc2cc1C	94%

Study 3
Cell line: mouse MPNST tumor cells
Technique: high-content nuclear imaging
Refers to: cell number
Tested at: 10 µM
Time: 12 h
Notes: mean of 2 replicates
Reference: plate mean
Direction: higher = more cells
Compound	nuclei count
O=C(O)c1cc(=O)c2c(OCC(O)COc3cccc4oc(C(=O)O)cc(=O)c34)cccc2o1	2.19 z-score
NC(=O)NC1NC(=O)NC1=O (centres unmarked)	0.279 z-score
Nc1ccc(S(=O)(=O)Nc2ccccn2)cc1	-0.111 z-score
CC(=O)O[C@@]12CO[C@@H]1C[C@H](O)[C@@]1(C)C(=O)[C@H](O)C3=C(C)[C@@H](OC(=O)[C@H](O)[C@@H](NC(=O)OC(C)(C)C)c4ccccc4)C[C@@](O)([C@@H](OC(=O)c4ccccc4)[C@H]21)C3(C)C	-4.39 z-score and -4.86 z-score and -0.499 z-score
c1cnc2cc3c(cc2n1)[C@@H]1CNC[C@H]3C1	1.81 z-score and -0.756 z-score
CCOC(=O)n1ccn(C)c1=S	2.81 z-score
CC(=Nc1ccccc1N)c1c(C)cc(=O)n(O)c1O	-0.263 z-score
CCCCN(CCCC)C(=O)CN1C[C@H](c2ccc3c(c2)OCO3)[C@@H](C(=O)O)[C@@H]1c1ccc(OC)cc1	2.16 z-score
CC(C)(C)c1cc(C(C)(C)C)nc(N2CCn3c(nnc3-c3ccc(OC(F)(F)F)cc3)C2)n1	4.17 z-score
O=C(O)CCCc1ccccc1	-0.0138 z-score
O=C(Nc1cccc2c(=O)cc(-c3nnn[nH]3)oc12)c1ccc(OCCCCc2ccccc2)cc1	0.423 z-score
CCCCCCC(=O)OC1CC(C)(C)NC(C)(C)C1	0.525 z-score
O=C(O)C[C@H](O)C[C@H](O)/C=C/c1c(C2CC2)nc2ccccc2c1-c1ccc(F)cc1	-4.76 z-score

Study 4
SMILES: CN(C)c1ncnc(-c2ccc3nc(Nc4cc(CN5CCN(C(=O)CC(F)(F)F)CC5)ccn4)[nH]c3c2)c1Cl
MAP3K19: Mitogen-activated protein kinase kinase kinase 19 (MAP3K19, Homo sapiens, UniProt Q56UN5)
Chain of UniProt Q56UN5 (whole entry, looked up): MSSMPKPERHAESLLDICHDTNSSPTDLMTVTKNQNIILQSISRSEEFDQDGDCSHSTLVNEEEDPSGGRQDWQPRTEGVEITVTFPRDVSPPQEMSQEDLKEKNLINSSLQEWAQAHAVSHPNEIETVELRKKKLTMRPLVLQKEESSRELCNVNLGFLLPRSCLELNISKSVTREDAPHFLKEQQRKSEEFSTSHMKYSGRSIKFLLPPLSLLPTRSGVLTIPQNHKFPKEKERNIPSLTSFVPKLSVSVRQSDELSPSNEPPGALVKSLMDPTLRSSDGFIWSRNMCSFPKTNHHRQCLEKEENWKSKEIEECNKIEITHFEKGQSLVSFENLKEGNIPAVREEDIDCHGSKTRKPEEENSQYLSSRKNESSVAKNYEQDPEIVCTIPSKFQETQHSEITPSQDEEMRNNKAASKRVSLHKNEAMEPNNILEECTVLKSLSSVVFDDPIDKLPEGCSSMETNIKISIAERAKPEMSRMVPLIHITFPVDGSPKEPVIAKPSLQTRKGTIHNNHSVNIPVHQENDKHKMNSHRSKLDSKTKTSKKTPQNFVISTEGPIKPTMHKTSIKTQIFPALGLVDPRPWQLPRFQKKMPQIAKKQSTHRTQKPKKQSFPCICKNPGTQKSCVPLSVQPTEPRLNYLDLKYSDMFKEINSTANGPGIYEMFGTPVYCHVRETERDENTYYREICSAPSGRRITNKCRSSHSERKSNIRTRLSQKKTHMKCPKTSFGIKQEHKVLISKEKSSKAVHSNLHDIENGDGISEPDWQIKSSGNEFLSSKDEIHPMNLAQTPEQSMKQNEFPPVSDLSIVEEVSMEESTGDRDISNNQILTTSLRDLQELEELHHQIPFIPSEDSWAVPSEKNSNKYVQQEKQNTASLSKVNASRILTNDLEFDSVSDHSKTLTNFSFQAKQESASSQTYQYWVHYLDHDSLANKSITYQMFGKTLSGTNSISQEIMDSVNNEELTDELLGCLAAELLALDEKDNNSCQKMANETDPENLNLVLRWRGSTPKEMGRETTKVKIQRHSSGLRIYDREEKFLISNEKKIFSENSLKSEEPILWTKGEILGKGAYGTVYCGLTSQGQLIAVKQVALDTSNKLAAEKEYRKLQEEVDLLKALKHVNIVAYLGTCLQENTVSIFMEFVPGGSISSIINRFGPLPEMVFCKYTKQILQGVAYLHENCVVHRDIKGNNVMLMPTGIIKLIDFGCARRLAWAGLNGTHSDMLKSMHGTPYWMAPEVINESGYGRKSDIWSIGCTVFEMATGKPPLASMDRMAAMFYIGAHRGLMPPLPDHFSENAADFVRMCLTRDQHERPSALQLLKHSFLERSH
MAP2K5: Dual specificity mitogen-activated protein kinase kinase 5 (MAP2K5, Homo sapiens, UniProt Q13163)
Chain of UniProt Q13163 (whole entry, looked up): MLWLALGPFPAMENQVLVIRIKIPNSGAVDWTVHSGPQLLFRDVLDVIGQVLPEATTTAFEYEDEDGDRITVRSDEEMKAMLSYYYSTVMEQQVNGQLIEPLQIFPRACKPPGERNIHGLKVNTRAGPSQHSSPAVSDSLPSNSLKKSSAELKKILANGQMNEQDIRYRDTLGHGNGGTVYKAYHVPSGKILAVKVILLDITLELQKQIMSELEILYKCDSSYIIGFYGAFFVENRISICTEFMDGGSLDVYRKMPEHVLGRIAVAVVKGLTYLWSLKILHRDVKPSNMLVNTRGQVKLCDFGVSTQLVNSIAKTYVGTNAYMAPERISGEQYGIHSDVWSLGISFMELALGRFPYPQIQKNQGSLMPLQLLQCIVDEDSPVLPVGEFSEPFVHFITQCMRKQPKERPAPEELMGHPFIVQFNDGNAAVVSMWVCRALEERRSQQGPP
IKBKE: Inhibitor of nuclear factor kappa-B kinase subunit epsilon (IKBKE, Homo sapiens, UniProt Q14164)
Chain of UniProt Q14164 (whole entry, looked up): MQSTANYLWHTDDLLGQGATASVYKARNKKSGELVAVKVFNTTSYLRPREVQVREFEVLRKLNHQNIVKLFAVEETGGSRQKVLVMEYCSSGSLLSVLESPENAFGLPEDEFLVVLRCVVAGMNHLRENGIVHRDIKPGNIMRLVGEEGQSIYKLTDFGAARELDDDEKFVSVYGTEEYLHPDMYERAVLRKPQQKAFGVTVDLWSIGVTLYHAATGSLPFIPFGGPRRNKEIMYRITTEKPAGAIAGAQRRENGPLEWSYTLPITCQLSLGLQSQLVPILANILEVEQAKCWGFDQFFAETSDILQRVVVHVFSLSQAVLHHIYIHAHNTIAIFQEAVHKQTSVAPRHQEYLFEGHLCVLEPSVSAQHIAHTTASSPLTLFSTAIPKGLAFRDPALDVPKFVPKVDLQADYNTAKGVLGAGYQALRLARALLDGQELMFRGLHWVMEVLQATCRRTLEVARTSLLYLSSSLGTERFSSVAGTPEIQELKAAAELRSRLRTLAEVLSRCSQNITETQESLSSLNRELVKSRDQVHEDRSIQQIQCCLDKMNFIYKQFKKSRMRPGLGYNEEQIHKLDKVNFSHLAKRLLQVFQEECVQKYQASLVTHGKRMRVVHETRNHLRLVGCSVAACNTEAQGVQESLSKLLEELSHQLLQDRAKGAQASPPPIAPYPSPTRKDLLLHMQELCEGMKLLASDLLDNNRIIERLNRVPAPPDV
target	test	system	EC50 [µM]
MAP3K19	target engagement in cells, BRET		> 50
MAP2K5	target engagement, NanoBRET	live cells	> 50
MAP2K5	target engagement in cells, BRET		> 50
IKBKE	target engagement, NanoBRET	live cells	> 50
IKBKE	target engagement, NanoBRET		> 50
FLT3 (Homo sapiens, UniProt P36888)	target engagement, NanoBRET	live cells	> 50
MAP3K19	target engagement, NanoBRET	live cells	> 50
IKBKE	target engagement in cells, BRET		> 50
STK17A (Homo sapiens, UniProt Q9UEE5)	target engagement in cells, BRET		5.1

A few entries again (study 1):
target	test	conditions	how to read	remaining binding [%]
GRK1 (Homo sapiens, UniProt Q15835)	competitive binding panel		reference: vehicle	95
SGK3 (Homo sapiens, UniProt Q96BR1)	competitive binding panel		reference: vehicle	8.1
GSK3B (Homo sapiens, UniProt P49841)	competitive binding panel		reference: vehicle	68
STK24 (Homo sapiens, UniProt Q9Y6E0)	competitive binding panel, refers to: MST3		reference: vehicle	76
BMPR1B (Homo sapiens, UniProt O00238)	competitive binding panel		reference: vehicle	56
TRPM6 (Homo sapiens, UniProt Q9BX84)	competitive binding panel		reference: vehicle	79
